Experimental data gathered from unrelated publications.
Each numbered part is a random draw from the data of one study; scales do not carry over between parts.

Study 1
Target: Sal-like protein 4, full length isoform A (SALL4, Homo sapiens, UniProt Q9UJQ4, residues 1-1053)
UniProt Q9UJQ4, sequence (whole entry, looked up): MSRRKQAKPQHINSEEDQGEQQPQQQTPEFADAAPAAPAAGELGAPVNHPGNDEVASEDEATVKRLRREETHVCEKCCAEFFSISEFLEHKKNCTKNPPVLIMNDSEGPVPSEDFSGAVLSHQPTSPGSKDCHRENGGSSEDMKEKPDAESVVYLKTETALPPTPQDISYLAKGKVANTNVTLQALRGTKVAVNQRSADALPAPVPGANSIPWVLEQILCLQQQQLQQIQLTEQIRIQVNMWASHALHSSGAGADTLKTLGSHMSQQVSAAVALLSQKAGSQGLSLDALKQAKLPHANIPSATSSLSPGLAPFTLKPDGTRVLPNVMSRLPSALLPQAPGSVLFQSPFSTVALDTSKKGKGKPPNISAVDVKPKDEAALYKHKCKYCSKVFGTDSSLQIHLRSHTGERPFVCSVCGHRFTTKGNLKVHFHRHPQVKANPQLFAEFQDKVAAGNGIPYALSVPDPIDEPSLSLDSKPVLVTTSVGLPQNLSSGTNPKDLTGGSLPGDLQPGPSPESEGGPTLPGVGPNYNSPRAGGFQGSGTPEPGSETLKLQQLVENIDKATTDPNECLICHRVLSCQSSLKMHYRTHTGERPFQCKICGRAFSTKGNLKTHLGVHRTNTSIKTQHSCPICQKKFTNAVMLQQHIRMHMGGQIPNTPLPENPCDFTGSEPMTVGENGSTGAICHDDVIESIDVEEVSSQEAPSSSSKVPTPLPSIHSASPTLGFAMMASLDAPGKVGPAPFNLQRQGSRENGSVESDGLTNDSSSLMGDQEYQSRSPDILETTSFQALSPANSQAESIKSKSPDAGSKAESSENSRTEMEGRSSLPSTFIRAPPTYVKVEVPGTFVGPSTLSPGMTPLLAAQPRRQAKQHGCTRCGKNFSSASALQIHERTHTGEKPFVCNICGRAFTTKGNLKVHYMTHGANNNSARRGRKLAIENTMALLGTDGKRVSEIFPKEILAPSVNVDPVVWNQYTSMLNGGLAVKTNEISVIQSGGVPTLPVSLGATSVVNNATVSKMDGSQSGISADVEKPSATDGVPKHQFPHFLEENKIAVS
Method: universal PBM
Molecule type: double-stranded DNA, one strand shown
Sample: in vitro
Tested at: 600 nM
Notes: 8-mer, flanks averaged, mean of replicates
Reading: higher = stronger binding
Measurement: E-score
CGACTGAG: -0.241
ACGAAAGT: 0.172
AACTATCT: 0.152
CTAGATCA: -0.0139
AATTTTCG: 0.333
GGCAGAAC: -0.109
GCTCACAC: -0.235
CGCTTATA: 0.142
GGGATGAA: -0.0577
AATCTCAG: -0.0471
AACCACGC: -0.232
AGGGTGCA: -0.19
AGAATTCT: 0.148
AGAATCTA: 0.131
TAGTCTCA: 0.21
ACTACTTC: 0.0115
AGTCCTCA: -0.0198
AGGCTATA: 0.142

Study 2
Target: Histone acetyltransferase KAT6A, winged helix 2, GST fusion (KAT6A, Homo sapiens, UniProt Q92794, residues 85-181)
Method: protein binding microarray
Molecule type: double-stranded DNA, one strand shown
Sample: in vitro
Tested at: not given
Notes: 8-mer, flanks averaged, mean of 2 arrays, mostly near background
Baseline: not given
Reading: higher = stronger binding
Measurement: E-score
Residues (chain): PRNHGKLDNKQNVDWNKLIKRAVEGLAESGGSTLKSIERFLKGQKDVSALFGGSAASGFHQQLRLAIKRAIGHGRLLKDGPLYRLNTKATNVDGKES
TTGTCAAA: 0.0634
GTCGGCAA: 0.15
CAGTCAGC: -0.0464
GATGGAAA: -0.00403
ATCTGTGG: -0.29
AGGTGCTC: -0.175
AATGCCTA: -0.108
ATGTGGGA: -0.19
ATAGACGC: -0.0244
CATGGCCC: -0.0488
CGGCCAGA: 0.101
ATAGGCCC: -0.196
ATGTTGGA: 0.0503
ATGTTGCG: 0.0949
TAGACACA: -0.106
AGGCAAAT: 0.114
ACCGCCCC: 0.198
GTACTAAA: 0.00596
AGCAGGTA: -0.106
ATGGCCAG: -0.00757
CCACCGGG: 0.0519
AAACCGAG: 0.0441
TAAGGCTA: -0.237
CAAAGATG: -0.0326
ACACCCGC: 0.00788

Study 3
Target: human cyclin B1
Effect on: peptide binding
Method: yeast competitive growth sequencing
Molecule type: peptide
Organism: Saccharomyces cerevisiae
Strain: cyclin B1-Cln2 fusion
Tested at: concentration not given
Notes: peptide tiling library
Reading: direction not given
Measurement: binding enrichment score
LENIEPLQVSFAVLSS: -0.0822
IQKKLRFEDTLEFVGF: 0.667
RKLHFEDEVT: 0.764
AKRSLGFLPQPVPL: 0.172
FREFEVEKQTAEETGL: 1.08
NNIRKALSFDNRGEEH: 0.334
LRRKLFLDGNGSIS: -0.331
NARRSLNFGGSTGT: 0.247
KDDDKAWEYEERDRRS: -0.0912
DTERAHSTLDEDLERW: -0.166
RDLFDCDFGDLTPLDF: 0.314
VLVRTSACRSLFGPVD: -0.17
LRRQLSFSED: 1.81
PLRKAKRARLCSSSSS: 1.03
TRRRLFVENDSP: 0.617
PQWPCGKHKRVLIFAS: -0.38
AEHPKPSACRNLFGPV: 0.046
ALTMEALEDPSPELME: 1.55
DKYDEGLYRFNSLNDL: 0.52
QYQVVDDIVSKLVFDF: 1.1
SCCKRKLVVGNGPEGP: 0.0866
GLPDFVFQQQPVESEA: 0.403
SDSTVTKLDFDLEP: 1.89
ESSTVSEEDYFSSHRD: -0.152
ALLRRLQDVANDRGSH: -0.126

Study 4
Target: RING finger protein unkempt homolog, zinc fingers 1-6, GST-SBP tag (UNK, Homo sapiens, UniProt Q9C0B0, residues 30-357)
UniProt Q9C0B0, sequence (30-357, looked up): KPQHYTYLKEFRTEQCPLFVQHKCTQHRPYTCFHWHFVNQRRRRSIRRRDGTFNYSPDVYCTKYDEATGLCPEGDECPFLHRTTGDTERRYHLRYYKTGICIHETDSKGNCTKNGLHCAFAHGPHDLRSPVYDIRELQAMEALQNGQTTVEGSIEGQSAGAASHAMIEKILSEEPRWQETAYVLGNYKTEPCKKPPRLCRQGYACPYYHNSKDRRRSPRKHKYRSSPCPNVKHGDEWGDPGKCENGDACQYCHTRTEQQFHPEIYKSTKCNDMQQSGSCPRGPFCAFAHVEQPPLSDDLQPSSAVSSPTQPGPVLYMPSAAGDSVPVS
Method: RNA Bind-n-Seq
Molecule type: RNA
Sample: in vitro
Tested at: not given
Notes: RNA with constant flanks, human-mouse chimeric sites, ends assumed
Baseline: input RNA pool
Reading: higher = stronger binding
Measurement: bound/input enrichment
All sequences stand within: GGGAGUUCUACAGUCCGACGAUC … CAACAGAGGAUUGAGCAUCA
UAAAUUAGGGCUGCCGUUUUCUGUUUCUCCCUGGGCUGCAGACAGCUAGAAGAUUUUAUCUAGCUUAUACAAGGCUGCUGGUGUUCCCUCUUUUUUUCCACGAGGGUUUUUUUUCCAGCA: 0.755 ratio
GUACUGCAGCAGCAGGGAAAACUGCAGGAAGCUCUGAUGCAUUAUAAAGAAGCCAUACGAAUUAGUCCUACCUUUGCUGAUGCCUACUCUAAUAUGGGAAACACUCUAAAGGAGAUGCAG: 0.52 ratio
CUGAGGAAUACCACUGAGAGACCUUAAAAGAAUCAUUUGAGGGCUCUGUUCGUGCAAGAAUAGUCACUGAUCGGGAAACUGGUUCUUUCCAAAGGGUUGGUUUUGUAGACUUUAAUAGUG: 0.754 ratio
UACUCAACUUUCUUUCCACAUUUUGAAUUCCAAGACAUUAUUCCUCCAGAUGACUUCCUAACGAGUGAUGAAGAGCAAGAUUCCGUUUUAUUUGGAACUAUGAGAGGACAAGUUGUUGGA: 0.188 ratio
GUAGCUGGGACUACAGAAAUGCUGGUAAUUUCAGUCAGUGAGUCGUGACUUCUGAUGUCCCAGCAAAUGUUGGCAUUCACUGCAAUAGAGAAGAUACUUCUGAGGACCCACGUCUAAGGU: 0.114 ratio
UUCAAAGAAAAGGGCAGCUGUGUCAUUUCAUAAGUAACUCUGGGGGAGGGAAAUUCUGUUCUUUUGUUUUUAGUUUUCCCAAAUGAAACCAACAUGCGUGUUGAAGAACUGAGAAAAAAU: 0.232 ratio
UUGCUACUGACUCCCUGGGUCAAGUUCCUGUGGGAAUCUUACAGGCAGUGUUUGGACCUUCUUCGAAACAAUUCUAGAGUAGAGCGCCUUUACCAUGAUAUCGCCCAACAAGCUUUCAAA: 0.169 ratio
UAAGUUAUUUUGUACAGCUUUGUAAAUUGUAUAGCUUUUUAUAUUGCCAUGUUUAUUUUGUUUGGGUAAUUUGGUUCAUUAAGUACAUAGCUAAGGUAAUGAACAUCGUAAUUAUAGAUU: 6.52 ratio
UCCCUGUUGCUGAAUAAAUGGCUUGUAAAGAAGUUUUUCCAAGCUGUAACCCAUGCUGUUAUUAUAGUUGCUGCAAAAUGUCUCUUAUGAUAUUGAUUUUAUUUGUUAACUGAAGGUCUC: 0.391 ratio
CGCUUGGAUGAGGCGGGUGUCACAGAUGAAGUGCUAGAUUCUGCCAUGCAAGCCUUCCUUCUGGAGGUCAUUGUUAAGCAUGGGGAGCCGGCACCUUAUUUAUGUAACAAAGAUCCGUUU: 0.101 ratio
AAAGUGAUAACCAUGUUUGUCCAACGACAGGUAUUUUCUGAGAACAAAGAUGAGAUUGCGUUAGUCCUCUAUGGCACAGAUGGCACUGAUAAUGCCCUUGCUGGCAAGGACCAGUAUCAG: 0.108 ratio

Study 5
Target: PABPC1L2, full length, GST fusion (mouse, UniProt A0ABA7IW68)
Method: RNAcompete
Molecule type: RNA
Sample: in vitro
Tested at: 20 nM
Notes: 7-mer, probes averaged, single round
Baseline: mean of 7-mers
Reading: higher = stronger binding
Measurement: 7-mer Z-score
Residues (chain): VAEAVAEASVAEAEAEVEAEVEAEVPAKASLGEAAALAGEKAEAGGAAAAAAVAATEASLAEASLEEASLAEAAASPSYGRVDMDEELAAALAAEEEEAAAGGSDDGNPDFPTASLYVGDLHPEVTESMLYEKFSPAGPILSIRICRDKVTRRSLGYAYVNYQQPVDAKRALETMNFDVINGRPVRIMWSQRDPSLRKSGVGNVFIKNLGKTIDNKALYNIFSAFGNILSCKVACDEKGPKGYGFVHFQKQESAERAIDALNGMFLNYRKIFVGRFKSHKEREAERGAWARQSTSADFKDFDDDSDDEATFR
GUACAGC: -0.153
GUCACGC: -0.168
AAUACCC: 0.0605
CACUUCU: -0.249
UAGCGGA: 0.0189
ACCCGCC: -0.485
AUUACCA: -0.104
CGAAUCG: -0.188
GCGCAAG: -0.249
AGUUCGU: -0.4
AGUUGCU: -0.229
UAAGUGC: -0.119
AGUGUCC: -0.124
CCUGGGU: -0.0391
UGUUGGA: -0.231
GUUUGCC: -0.516
AAAGGGG: 1.62
CGAUGUG: -0.226
AGUGGCC: 0.137
ACUCCGC: -0.106
UCCGAAC: -0.249
UGCAAUC: -0.199

Study 6
Target: RNA binding protein fox-1 homolog 2, RRM domain, GST-SBP tag (RBFOX2, Homo sapiens, UniProt O43251-10, residues 100-194)
Method: RNA Bind-n-Seq
Molecule type: RNA
Sample: in vitro
Tested at: 365 nM
Notes: natural RNA segment, single round, ends assumed
Baseline: no-protein control
Reading: higher = stronger binding
Measurement: RBNS enrichment (R)
All sequences stand within: GGGAGUUCUACAGUCCGACGAUC … UGGAAUUCUCGGGUGCCAA
Target sequence (chain): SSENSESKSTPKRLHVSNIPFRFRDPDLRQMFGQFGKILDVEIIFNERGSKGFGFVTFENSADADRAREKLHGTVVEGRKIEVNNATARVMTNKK
ACUGGGUGGACUUUCUCAAUUGCUCUGCCAGGAGGGAACAAGCCCAGAGGCUGAAGCUUCCCAGUAUUUAGAGGUGUGGUAGGGCAGUGUCUGCAUUCCCAGGAGACCCA: 0.626
UUUUUUCUUCCCUUCAUAUAUCCAUUCAAACUCAAUGGAAAGUUAUUAAAUAACCAUUAGAAAAGCUCAGUAGACUUAUUUGAGAAAUUAAGCCUUGUGCAGGAUGAUGG: 0.413
GGUGAGGCUGGGAGGAGGAAGACUGAGGUAGAGAUUCCAGGCCCUGGCAUAAGCUGAAUCCCAAAUUUGAGUUUGGGAAGAACCAGAGAGAAAUGGAUCCCUGAGCUCUG: 1.03
AUGACAGGACCUGGAAUGUACUGGCUGGGGUAGGCCUCAGUGAGUCGGCCGGUCAGGGCCCGCAGCCUCGCCCCAUCCACUCCGGUGCCUCCAUUUAGCUGGCCAAUCAG: 0.36
AGUCACCUGGUUCCCACUACUGUCGUAGCAGAUAGCGAAGGGACAAUCUGAGACUUGUAGAGAUGAUUUAAUGAGAAGCACAAUUUUUAUUGUGACCAGUCACGUUCUAU: 0.327
UUGGAAGGAGGUGCCUAUAGAAAACGAUUUUGAACAUACUUCAUCGCAGUGGACUGUGUCCCUCGGUGCAGAAACUACCAGAUUUGAGGGACGAGGUCAAGGAGAUAUGA: 0.953
GUCUCUGGGUCGGUCAGUGACAUGUAGGUAGGAAGCACUGAAAAUAGUGUUCCCAGAGCACUUUGCAACUCCCUGGGUAAGAGGGACGACACCUCUGGUUUUUCAAUACC: 0.33
UUCCUUUGGGUUUCCAGAGUCUCUGGGAGAAGAAGGGUGGGCGGGUGGACCCAGAGCGACCCAGAUUGGGUGGCUGGGGCGGGGCAGUAGGGUUCAUUCUCCUAGUGCCC: 0.169
AUUACUGUUCAGCAUCAUCUUGGUUAUAUACUGAAAAUCAAACACUUUACUACAGUUGUGAAUUAGUUUAAACCGUACAAUGUUGUUAUCAUAUCAUGCUUCAACUAUUA: 0.347
UCUUGAGCUUGAAUUCACUUCUCUGUCUGUUUCCGGAGCUGGUGAAAUAAAUGUGAUUUUUGUCCGAUCCUUCUGGUUUUCAUGAAGAUUAGCUGCCAUGUUUUAUUCUU: 0.586
AUGAACUGUAUUUUUACAAUGAUCGCCGCAUGACUAUUUCACACCCUUUUUAUACUCCAUAUCUGUCUUCCAGAAACGUCACCUGCCUUUCUCCUGUGGUCUCUUAAUCC: 0.983
AAUGUAUCUCAAAUUUUUAAAUAGAAGAGUAAUAAACAGACUUUAAAGCAAAUAUUAAGAUUUUUACUCAUUCAAGGCAAGUAAAUGAAUGGAAUUAUCUGAGCUCUAUG: 0.758
